Assay results from different studies.
Converted amounts (≈) assume the structure as drawn.
Sequence of UniProt Q15208 (whole entry, looked up): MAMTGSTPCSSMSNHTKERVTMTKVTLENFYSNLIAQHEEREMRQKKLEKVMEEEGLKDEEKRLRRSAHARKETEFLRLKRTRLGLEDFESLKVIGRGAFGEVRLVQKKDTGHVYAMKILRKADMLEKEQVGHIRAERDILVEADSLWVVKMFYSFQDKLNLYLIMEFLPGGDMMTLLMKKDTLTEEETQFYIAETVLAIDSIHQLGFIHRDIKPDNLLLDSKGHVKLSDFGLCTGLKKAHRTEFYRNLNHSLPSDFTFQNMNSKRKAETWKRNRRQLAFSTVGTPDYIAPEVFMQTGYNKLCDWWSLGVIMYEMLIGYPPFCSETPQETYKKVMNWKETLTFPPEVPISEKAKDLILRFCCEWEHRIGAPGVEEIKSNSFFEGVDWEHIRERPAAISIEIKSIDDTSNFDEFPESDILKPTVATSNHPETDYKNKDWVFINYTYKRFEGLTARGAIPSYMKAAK

| SMILES | tested on | assay | test system | setting | endpoint | result |
| --- | --- | --- | --- | --- | --- | --- |
| COC(=O)c1cc(-c2cccc(NC(=O)Nc3ccc(C)c(Cl)c3)c2)on1 | Escherichia coli | microbial growth, broth dilution | ATCC25922 |  | MIC | > 64 µg/mL |
| Cc1sc2c(c1C)C(c1ccc(Cl)cc1)=N[C@H](CC(=O)OC(C)(C)C)c1nnc(C)n1-2 | OCI-Ly1 | cell growth or viability, ATP luminescence |  | 0.5 µM, 5 days | viability | 141% |
| O=C(NNc1ccc(Cl)cc1)c1nnc(C23CC4CC(CC(C4)C2)C3)o1 | Pyricularia grisea | microbial growth |  | 50 µg/mL | inhibition | 100% |
| O=C1c2[nH]cc3c2C(=NCC3)c2c(-c3ccc(O)cc3)c[nH]c21 | Babesia duncani | parasite growth, SYBR Green |  | 60 h, blood stage | IC50 | 0.146 µM |
| [2H]c1c([2H])c([C@]2([2H])CCCN2C(=O)C(C)(C)Oc2ccc3cn[nH]c3c2)c([2H])c([2H])c1C([2H])([2H])[2H] | STK38 (Homo sapiens, UniProt Q15208) | binding, competition with immobilised ligand |  | 1 µM | remaining binding | 100% |
| COc1ccc(Nc2nn3c(-c4ccccc4)ccnc3c2C(=O)Nc2ccccc2)cc1 | A549 | cell growth or viability, MTT |  | 6.25 µg/mL, 48 h, serum-free | viability | 98.7% |
| CC(C)[C@H]1NC(=O)[C@H](Cc2ccccc2)NC(=O)CNC(=O)[C@@H](Cc2ccccc2)NC(=O)[C@H](CCCCN)NC(=O)[C@@H](CCCN)NC1=O | Balamuthia mandrillaris | parasite growth, ATP luminescence |  |  | IC90 | > 16 µg/mL |
| COC(=O)c1cc(-c2ccc(OC)c(NC(=O)Nc3ccc(Cl)c(Cl)c3)c2)on1 | Mycobacteroides abscessus | microbial growth, broth dilution | ATCC19977 | 48 h | MIC | > 64 µg/mL |
| O=c1cc(CSc2ccc(N=Cc3ccc(Cl)cc3)cc2)occ1O |  | ABTS scavenging, absorbance |  |  | IC50 | 0.03 µM |
| Nc1cc(I)c(I)cc1N | ME-180 | cell growth or viability |  | 72 h | IC50 | 15 µM |
| O=C(NNc1ccc(Cl)c(Cl)c1)c1nnc(CC23CC4CC(CC(C4)C2)C3)o1 | Pyricularia grisea | microbial growth |  |  | EC50 | > 12.5 µg/mL |
| CCc1ccc(C=Nc2ccc(SCc3cc(=O)c(O)co3)cc2)cc1 |  | ABTS scavenging, absorbance |  |  | IC50 | 12.3 µM |
| C[C@H]1NC(=O)[C@H](Cc2ccccc2)NC(=O)[C@@H](Cc2ccccc2)NC(=O)[C@H](Cc2ccccc2)NC(=O)[C@@H](CCCN)NC(=O)[C@H](CCCN)NC1=O | Balamuthia mandrillaris | parasite growth, ATP luminescence |  |  | IC90 | 12.2 µM |
| COC(=O)c1cc(-c2cccc(NC(=O)Nc3ccc(Cl)c(C(F)(F)F)c3)c2)on1 | Escherichia coli | microbial growth, broth dilution | ATCC25922 |  | MIC | > 64 µg/mL |
| NCCCC[C@@H]1NC(=O)[C@@H](CCCCN)NC(=O)[C@H](CO)NC(=O)[C@H](Cc2c[nH]c3ccccc23)NC(=O)[C@@H](Cc2c[nH]c3ccccc23)NC(=O)[C@H](Cc2ccccc2)NC(=O)[C@@H](CCCCN)NC1=O | Balamuthia mandrillaris | parasite growth, ATP luminescence |  |  | IC50 | > 16 µg/mL |
| O=C(NNc1ccc(Cl)c(Cl)c1)c1nnc(C23CC4CC(CC(C4)C2)C3)o1 | Pyricularia grisea | microbial growth |  |  | EC50 | > 50 µg/mL |

| SMILES | tested on | assay | test system | setting | endpoint | result |
| --- | --- | --- | --- | --- | --- | --- |
| COc1ccc(Nc2nn3c(-c4ccccc4)ccnc3c2C(=O)Nc2ccc(Cl)cc2)cc1 | A549 | cell growth or viability, MTT |  | 25 µg/mL, 48 h, serum-free | viability | 49.8% |
| CC(C)[C@@H]1NC(=O)[C@@H](CCCCN)NC(=O)[C@H](CCCCN)NC(=O)[C@@H](CCCN)NC(=O)[C@H](C)NC(=O)[C@H](Cc2c[nH]c3ccccc23)NC(=O)[C@@H](Cc2ccccc2)NC1=O | Balamuthia mandrillaris | parasite growth, ATP luminescence |  |  | IC90 | > 16 µg/mL |
| O=C(NNc1ccc(F)c(F)c1)c1nnc(C23CC4CC(CC(C4)C2)C3)o1 | Pyricularia grisea | microbial growth |  |  | EC50 | > 50 µg/mL |
| CC(C)[C@@H]1NC(=O)[C@@H](Cc2ccccc2)NC(=O)[C@H](Cc2ccccc2)NC(=O)[C@@H]([C@H](C)O)NC(=O)[C@H]([C@@H](C)O)NC(=O)[C@@H](CCCNC(=N)N)NC1=O | Balamuthia mandrillaris | parasite growth, ATP luminescence |  |  | IC90 | > 16 µg/mL |
| O=C(NNc1ccccc1)c1nnc(CC23CC4CC(CC(C4)C2)C3)o1 | Pyricularia grisea | microbial growth |  |  | EC50 | > 50 µg/mL |
| COC(=O)c1cc(-c2cccc(NC(=O)Nc3cccc(C#N)c3)c2)on1 | Escherichia coli | microbial growth, broth dilution | ATCC25922 |  | MIC | > 64 µg/mL |
| O=C1C(NCCc2ccc(O)cc2)=CC2=NCCc3c[nH]c1c32 | Babesia duncani | parasite growth, SYBR Green |  | 60 h, blood stage | IC50 | 0.192 µM |
| C[C@@H]1[C@H](O)[C@@H](C)/C=C/C=C/C=C/C=C/C=C/C=C/C=C/[C@H](O[C@@H]2O[C@H](C)[C@@H](O)[C@H](N)[C@@H]2O)C[C@@H]2O[C@](O)(C[C@@H](O)C[C@@H](O)[C@H](O)CC[C@@H](O)C[C@@H](O)CC(=O)O[C@H]1C)C[C@H](O)[C@H]2C(=O)O | Nakaseomyces glabratus | microbial growth, broth dilution | MY1381 |  | MIC | 0.5 µg/mL (≈ 0.541 µM) |
| CC(C)[C@H]1NC(=O)[C@H](Cc2ccccc2)NC(=O)CNC(=O)[C@@H](Cc2ccccc2)NC(=O)[C@H](CCCCN)NC(=O)[C@@H](CCCNC(=N)N)NC1=O | Balamuthia mandrillaris | parasite growth, ATP luminescence |  |  | IC50 | > 16 µg/mL |
| Cc1ccccc1C=Nc1ccc(SCc2cc(=O)c(O)co2)cc1 |  | ABTS scavenging, absorbance |  |  | IC50 | 36.4 µM |
| CN(C)c1ccc(C(=O)NCCCCCCC(=O)NO)cc1 | HBL1 | cell growth or viability, ATP luminescence |  | 0.5 µM, 5 days | viability | 37.3% |
| CC(C)[C@H]1NC(=O)[C@H](Cc2ccccc2)NC(=O)CNC(=O)[C@@H](Cc2c[nH]c3ccccc23)NC(=O)[C@H](CCCCN)NC(=O)[C@@H](CCCN)NC1=O | Balamuthia mandrillaris | parasite growth, ATP luminescence |  |  | IC90 | > 16 µg/mL |
| O=c1cc(CSc2ccc(N=Cc3ccc(Br)cc3)cc2)occ1O |  | ABTS scavenging, absorbance |  |  | IC50 | 0.93 µM |
| C#CC[C@@H]1NC(=O)[C@@H](CCCNC(=N)N)NC(=O)[C@H]([C@@H](C)O)NC(=O)[C@@H](CCCN)NC(=O)[C@H](Cc2ccccc2)NC(=O)[C@@H](Cc2ccccc2)NC1=O | Balamuthia mandrillaris | parasite growth, ATP luminescence |  |  | IC50 | 16.4 µM |
| N.N.[Cl][Pt][Cl] | SU-DHL-5 | cell growth or viability, ATP luminescence |  | 72 h | IC50 | 0.76 µM |

For quick reference, copied from above:
| SMILES | tested on | assay | test system | setting | endpoint | result |
| --- | --- | --- | --- | --- | --- | --- |
| [2H]c1c([2H])c([C@]2([2H])CCCN2C(=O)C(C)(C)Oc2ccc3cn[nH]c3c2)c([2H])c([2H])c1C([2H])([2H])[2H] | STK38 (Homo sapiens, UniProt Q15208) | binding, competition with immobilised ligand |  | 1 µM | remaining binding | 100% |
| COc1ccc(Nc2nn3c(-c4ccccc4)ccnc3c2C(=O)Nc2ccccc2)cc1 | A549 | cell growth or viability, MTT |  | 6.25 µg/mL, 48 h, serum-free | viability | 98.7% |
